Measured values from different studies.
Each numbered part is a random draw from the data of one study; scales do not carry over between parts.

Series 1
Target: Interferon regulatory factor 7, full length, phosphomimetic (IRF7, Homo sapiens, UniProt Q92985, residues 1-503, S471D/S472D/S475D/S476D/S477D/S483D/S484D/S487D)
Chain of UniProt Q92985 (whole entry, unmodified, looked up): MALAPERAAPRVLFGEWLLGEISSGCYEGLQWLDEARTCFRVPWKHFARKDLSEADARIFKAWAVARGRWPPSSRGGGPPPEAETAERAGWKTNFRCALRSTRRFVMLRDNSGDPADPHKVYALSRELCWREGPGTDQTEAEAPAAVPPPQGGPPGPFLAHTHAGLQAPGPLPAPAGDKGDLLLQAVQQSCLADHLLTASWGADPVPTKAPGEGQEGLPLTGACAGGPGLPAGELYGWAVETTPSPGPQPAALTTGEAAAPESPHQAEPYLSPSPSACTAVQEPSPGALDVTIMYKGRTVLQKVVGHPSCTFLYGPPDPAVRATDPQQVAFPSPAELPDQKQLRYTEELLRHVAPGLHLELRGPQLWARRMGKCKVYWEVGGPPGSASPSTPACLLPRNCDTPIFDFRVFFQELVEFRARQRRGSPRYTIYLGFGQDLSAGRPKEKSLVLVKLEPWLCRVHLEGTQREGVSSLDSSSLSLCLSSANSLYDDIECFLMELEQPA
Method: protein-binding microarray
Form: double-stranded DNA, one strand shown
Medium: in vitro
Tested at: 2200 nM top
Notes: 60-bp whole probe
Together with: salmon DNA 0.4 mg/ml
Baseline: random background probes
Reading: higher = stronger binding
All sequences stand within: GCCTAGCAC … GTCTTGATTCGCTTGACGCTGCTG
Under “fitted relative affinity”, `TTAGAATTGGGGTATCGATTAGTGCTA` is recorded as 0.0596 z-score.
`TTAGGTTTCGGGATTGGGTTAGTGCTA` — result for “fitted relative affinity”: 4.87 z-score.
`ATAGAACTGGGGACTGGATTAGTGCTA` — result for “fitted relative affinity”: -0.474 z-score.
`TTAGGTTCCCTGTTCCTTTAGTGCTAG`: “fitted relative affinity” 1.86 z-score.
For `TTAGGTATCGGGTTTCGATTAGTGCTA`, “fitted relative affinity” read 2.95 z-score.

Series 2
Target: Histone acetyltransferase KAT6A, winged helix 1, GST fusion (KAT6A, Homo sapiens, UniProt Q92794, residues 1-85)
Method: protein binding microarray
Form: double-stranded DNA, one strand shown
Medium: in vitro
Tested at: not given
Notes: 8-mer, flanks averaged, mean of 2 arrays, mostly near background
Baseline: not given
Reading: higher = stronger binding
Residues (chain): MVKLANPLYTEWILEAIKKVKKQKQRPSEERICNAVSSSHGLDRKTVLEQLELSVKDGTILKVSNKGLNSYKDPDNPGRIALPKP
With `TCGTGCAA` the E-score was -0.138.
The E-score of `CTATATTA` is reported as -0.0213.
`GCTTGGCA` gave an E-score of -0.22.
`CGCTTATA` gave an E-score of 0.251.
For `AGCGTCCA`, the E-score was -0.0145.
The E-score of `CAGGGCAC` is reported as -0.179.
`AGGTGCCC` gave an E-score of 0.063.

Series 3
Target: TAR DNA-binding protein 43, full length, His tag (TARDBP, Homo sapiens, UniProt Q13148, residues 1-414)
Method: RNA Bind-n-Seq
Form: RNA
Medium: in vitro
Tested at: 20 nM
Notes: 6-mer, flanks averaged, single round
Together with: 150 mM LiCl
Baseline: input library
Reading: higher = stronger binding
Under “6-mer enrichment (R)”, `AUACGU` is recorded as 0.877.
`GACCGA` — result for “6-mer enrichment (R)”: 0.854.
For `AGUCUA`, “6-mer enrichment (R)” read 0.818.
`UCGGAG`: “6-mer enrichment (R)” 1.
Under “6-mer enrichment (R)”, `CGACUG` is recorded as 0.913.

Other studies, line by line
`PhoQ, residues 284 288 289 292 302 303 SLCLSL` has a fold induction of 0.993 (PhoP, residues 12 14 15 18 19 LYHSL (Escherichia coli, UniProt P23836); Sort-seq, measured: YFP reporter; E. coli; PhoQ-PhoP variant library, together with: 10 µM Mg2+; baseline: high Mg2+ state, higher = stronger signaling).

For quick reference, copied from above (series 1):
`TTAGGTTTCGGGATTGGGTTAGTGCTA` — result for “fitted relative affinity”: 4.87 z-score.
